Results gathered from unrelated publications.
Parts stem from different laboratories: compare values within a part only. Positions count from the first letter of the parent shown.

Series 1
Target: CCNB3, cyclin fold, Cln2 fusion (human)
Technique: yeast growth competition, sequencing
Medium: yeast
Setting: weak parent motif
Relative to: not given
Direction: higher = stronger binding
Starting sequence: CDKN1A docking peptide (human); SKACRRLFGPVDS
`K2V` — result for “normalised enrichment score”: 0.714.
Under “normalised enrichment score”, `L7E` is recorded as -0.157.
`R6Q` — result for “normalised enrichment score”: 0.1.
Under “normalised enrichment score”, `D12G` is recorded as 0.311.
`F8S`: “normalised enrichment score” 0.133.
`R6I`: “normalised enrichment score” 0.353.
`D12K` — result for “normalised enrichment score”: 0.368.
For `C4R`, “normalised enrichment score” read 1.22.
`A3C`: “normalised enrichment score” 0.678.
`L7G`: “normalised enrichment score” -0.196.
For `K2Q`, “normalised enrichment score” read 0.359.
For `C4N`, “normalised enrichment score” read 0.223.
Under “normalised enrichment score”, `P10Y` is recorded as 0.384.
For `C4V`, “normalised enrichment score” read 0.577.
`K2L`: “normalised enrichment score” 0.373.
Under “normalised enrichment score”, `R6M` is recorded as 0.242.

Series 2
Target: ABI1, truncated, D143A, DHFR fusion (Arabidopsis thaliana)
Technique: DHFR PCA, deep sequencing
Medium: yeast
Setting: methotrexate growth selection, single substitutions
With: (+)-ABA 0.032 µM
Relative to: wild-type fitted maximum
Direction: higher = stronger binding
Starting sequence: PYL1, truncated, DHFR fusion (Arabidopsis thaliana); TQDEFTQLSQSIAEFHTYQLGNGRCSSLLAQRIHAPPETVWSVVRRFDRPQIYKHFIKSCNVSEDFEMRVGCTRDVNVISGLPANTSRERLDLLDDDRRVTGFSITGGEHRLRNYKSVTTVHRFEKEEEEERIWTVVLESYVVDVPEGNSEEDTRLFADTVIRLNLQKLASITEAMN
Under “relative binding score”, `F47V` is recorded as -0.0906%.
`K168F`: “relative binding score” -9.72%.
`A84K` — result for “relative binding score”: 37.3%.
Under “relative binding score”, `G148Q` is recorded as -0.67%.
For `T86D`, “relative binding score” read 8.4%.
`P50F`: “relative binding score” -3.63%.
For `Q167A`, “relative binding score” read 25.5%.
For `E89Y`, “relative binding score” read -1.65%.
`T101L`: “relative binding score” 74.4%.
Under “relative binding score”, `E174N` is recorded as -2.14%.
For `T173H`, “relative binding score” read 2.22%.
`F56E`: “relative binding score” 2.68%.
For `S9G`, “relative binding score” read 19.2%.
Under “relative binding score”, `S140F` is recorded as -3.23%.
For `V78L`, “relative binding score” read 69.7%.

Series 3
Target: Histone acetyltransferase KAT6A, both winged helices, GST fusion (KAT6A, Homo sapiens, UniProt Q92794, residues 1-181)
Technique: protein binding microarray
Form: double-stranded DNA, one strand shown
Medium: in vitro
Tested at: not given
Setting: 8-mer, flanks averaged, mean of 2 arrays, mostly near background
Relative to: not given
Direction: higher = stronger binding
Residues (chain): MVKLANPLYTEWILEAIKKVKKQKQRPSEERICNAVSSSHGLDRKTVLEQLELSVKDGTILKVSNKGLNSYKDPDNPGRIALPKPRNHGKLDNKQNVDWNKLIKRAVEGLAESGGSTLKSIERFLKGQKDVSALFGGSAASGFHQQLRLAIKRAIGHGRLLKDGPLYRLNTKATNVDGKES
The E-score of `GAAGAGCC` is reported as 0.101.
For `GTCGGGAA`, the E-score was 0.133.
The E-score of `GAGTTTGC` is reported as 0.048.
`ATGAAAGA` has an E-score of -0.124.
With `CCGATCCG` the E-score was 0.174.
`CACGTTTC` gave an E-score of -0.0723.
`GTGAGAAA` gave an E-score of -0.0699.
`AAGGTCGA` gave an E-score of -0.0336.
The E-score of `CTGTTTGA` is reported as -0.157.
With `ACTTCTTA` the E-score was -0.135.
For `GACCTTAC`, the E-score was -0.0257.
The E-score of `TGTTAGAA` is reported as -0.169.
With `AGCAGCAC` the E-score was -0.193.
`CTTACTCA` has an E-score of -0.109.
The E-score of `CGTTCTAA` is reported as 0.0347.
The E-score of `TATAAAAA` is reported as -0.0282.
For `AATCTAGG`, the E-score was -0.107.
`GTGCGAGA` has an E-score of -0.18.
`GTCACGGA` gave an E-score of 0.289.
With `ATATATCA` the E-score was 0.0099.
For `ACCCGCCT`, the E-score was 0.185.
`CTAAGGAA` gave an E-score of -0.016.
The E-score of `ATCGCGTG` is reported as 0.229.
The E-score of `CCTATCGC` is reported as 0.129.
For `ACACCGGA`, the E-score was -0.0122.

Series 4
Target: RNA binding protein fox-1 homolog 2, RRM domain, GST-SBP tag (RBFOX2, Homo sapiens, UniProt O43251-10, residues 100-194)
Technique: RNA Bind-n-Seq
Form: RNA
Medium: in vitro
Tested at: 365 nM
Setting: natural RNA segment, single round, ends assumed
Relative to: no-protein control
Direction: higher = stronger binding
Target sequence (chain): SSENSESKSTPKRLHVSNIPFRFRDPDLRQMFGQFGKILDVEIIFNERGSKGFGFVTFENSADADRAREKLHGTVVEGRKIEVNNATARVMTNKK
For `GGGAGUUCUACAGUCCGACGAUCACUCAAAUUUAAACCAUGCUUUCUUGUAGUACUGAUUGAAACUUACACGUUUUAUUCUACUCAUAGUGAGCUUAUUCUUAUUUUGGAUUGAUUUUCCAAAACCACAGCUUUGGAAUUCUCGGGUGCCAA`, “RBNS enrichment (R)” read 0.256.
For `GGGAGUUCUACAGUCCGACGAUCCACUUAAUAGUGACUUUACAAAAUAAAAGUUAUAUUCUCAGUUGUUUAAAAUCACUAACCUAUGAUAACCACACCUCAAUUUGAAAGUAGAUUUAAAAUUAUUCCCUGACUGGAAUUCUCGGGUGCCAA`, “RBNS enrichment (R)” read 0.417.
`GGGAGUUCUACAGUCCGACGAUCGUCAUUUAGUUAUGAACGAAAUAAGAAAAGUGAGAACUUCAAAAGCUGUGGUCUUAAAUACUAGACCAGGUUUAGUAGCUCUGUUUUGUCAGUUUUCUAUUUGCCCUCUUUGGAAUUCUCGGGUGCCAA` — result for “RBNS enrichment (R)”: 0.633.
Under “RBNS enrichment (R)”, `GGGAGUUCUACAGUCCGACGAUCUCCUAGUUGUCCAGGGAUAAAAAUCAUAUAGACCAAUUGAAGCAUGAACGUGGAUUGUAUUUAAGACAUAAACAAAGACAUUGACAGCAAUUCAUGGUUCAAGUAUUAAGUGGAAUUCUCGGGUGCCAA` is recorded as 1.75.
`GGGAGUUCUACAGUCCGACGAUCAAAGUGAAAUGCCACUUAGUUCUCAAUUGAUGACAGUGUUUGAAUCAUCAUAAAAAAAAUACCUGCUUUUCAUCUGGACAACCCAAUUGAGCCACUUUAUCUCCUUUUGGUGGAAUUCUCGGGUGCCAA`: “RBNS enrichment (R)” 0.436.
`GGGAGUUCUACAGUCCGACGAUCAUUUGAGUCUUCUGGCAACAUUUGGUGACCUACCCCAUAUCCAAUAUUUCCAGCGUUAGAUUGAGGAUGAGGUAGGGAGGUGAUCCAGAGAAGGCGGAGAAGGAAGAAGUUGGAAUUCUCGGGUGCCAA`: “RBNS enrichment (R)” 0.429.
Under “RBNS enrichment (R)”, `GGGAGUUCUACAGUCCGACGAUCCUCGUGCACACUGGAUUGGUUUCUCAGUUGCUGGGCGAGCCUGUACUCUGCCUGACGAGGAACGCUGGCUCCGAAGAGGCCCUGUGUAGAAGGCUGUCAGCUGCUCAGCCUGGAAUUCUCGGGUGCCAA` is recorded as 0.265.
`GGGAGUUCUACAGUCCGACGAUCUUGUUUUAUAGUUAUUUACGAUUUCGUUUGUUUGGAUUCAAGCUUAGUUUGUUAAUAUGUAUAAUUUAGCAUCUAUUACACUCAUGUAAAUAUGGAGUAAGUAUUGUAAAUGGAAUUCUCGGGUGCCAA` — result for “RBNS enrichment (R)”: 0.758.
Under “RBNS enrichment (R)”, `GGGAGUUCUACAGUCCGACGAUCAAUACUAGAUGCAAGUGUUUCCAAAGCAAAAAAGGUGCAAUUUUAAAGAAUACAUAGCCAAAGCAAUGUUACUACCCAUCAUACUGUUUAAAAAUGGAUAGAAAAUAAAAUGGAAUUCUCGGGUGCCAA` is recorded as 0.404.
Under “RBNS enrichment (R)”, `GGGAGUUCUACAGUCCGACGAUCGCCAGCCAUGCAGGCUCCAUCAGGCACCGUGUCCCCAGGGGUGGGCAUGAACCAGUGCGCCACAUGUGAUUUUGAAAUAAACACCUCAACUAGCACUAAUUUUAUUUGCAUGGAAUUCUCGGGUGCCAA` is recorded as 4.07.
Under “RBNS enrichment (R)”, `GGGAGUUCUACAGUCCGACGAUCUAUGACAUCUAUUUUGGAAAAUGUUUGCCCUGCUGUACCUCAUUUUUAGGAGGUGUGCAUGGAUGCAAUAUAUGAAAAUGGGACAUUCUGGAACUGCUGGUCAGGGGACUUGGAAUUCUCGGGUGCCAA` is recorded as 0.575.
`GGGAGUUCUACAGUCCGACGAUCCCGUGUACACUGAUUACAUUUCAGGAGGACGUGUUCUAUUUAUGUUGUGCCUCUGCAGGCAAAGCCCUUAAUAAAUAUUUUGCAUACUUUCUAAUGACAAUGAAUGGAAUUGGAAUUCUCGGGUGCCAA`: “RBNS enrichment (R)” 0.421.

Series 5
Target: PABPC1L2, full length, GST fusion (mouse, UniProt A0ABA7IW68)
Technique: RNAcompete
Form: RNA
Medium: in vitro
Tested at: 20 nM
Setting: 7-mer, probes averaged, single round
Relative to: mean of 7-mers
Direction: higher = stronger binding
Target sequence (chain): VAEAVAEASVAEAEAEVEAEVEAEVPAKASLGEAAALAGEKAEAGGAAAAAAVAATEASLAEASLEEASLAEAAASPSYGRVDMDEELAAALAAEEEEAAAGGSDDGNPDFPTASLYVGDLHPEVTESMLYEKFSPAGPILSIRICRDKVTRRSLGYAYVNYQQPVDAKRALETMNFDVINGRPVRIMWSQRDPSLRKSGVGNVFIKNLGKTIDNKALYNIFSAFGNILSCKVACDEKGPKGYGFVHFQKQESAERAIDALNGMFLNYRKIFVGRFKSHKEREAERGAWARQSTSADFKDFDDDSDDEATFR
With `GUCCAUU` the 7-mer Z-score was -0.266.
With `GAGGGGG` the 7-mer Z-score was 0.311.
For `AUAUUAA`, the 7-mer Z-score was 0.0352.
For `CCCAGGG`, the 7-mer Z-score was -0.237.
`CGGAUCA` gave a 7-mer Z-score of 0.0279.
`CCCGCUG` gave a 7-mer Z-score of -0.371.
The 7-mer Z-score of `AAUAGAA` is reported as 1.35.
With `UUUCCCG` the 7-mer Z-score was -0.519.
`AGAAAAU` gave a 7-mer Z-score of 3.85.
`GUACACG` has a 7-mer Z-score of -0.124.
`CAAUCAC` gave a 7-mer Z-score of -0.0645.
With `CGCAAUU` the 7-mer Z-score was -0.231.
For `CUGCCUG`, the 7-mer Z-score was -0.306.
For `UCCGUUA`, the 7-mer Z-score was -0.349.
For `AGAAUGG`, the 7-mer Z-score was 0.144.
The 7-mer Z-score of `UGACACA` is reported as 0.0189.
`AGGACUU` has a 7-mer Z-score of 0.0189.
For `CGGGGUG`, the 7-mer Z-score was -0.012.

Mixed results
The fold induction of `PhoQ, residues 284 288 289 292 302 303 TTCLQL` is reported as 5.95 (PhoP, residues 12 14 15 18 19 LHHVQ (Escherichia coli, UniProt P23836); Sort-seq, refers to: YFP reporter; E. coli; PhoQ-PhoP variant library, with: 10 µM Mg2+; relative to: high Mg2+ state, higher = stronger signaling).

Some of these lines once more (series 2):
Under “relative binding score”, `G148Q` is recorded as -0.67%.
`A84K` — result for “relative binding score”: 37.3%.
For `T86D`, “relative binding score” read 8.4%.
For `E89Y`, “relative binding score” read -1.65%.
For `S9G`, “relative binding score” read 19.2%.
`K168F`: “relative binding score” -9.72%.
`F56E`: “relative binding score” 2.68%.
`T101L`: “relative binding score” 74.4%.
`P50F`: “relative binding score” -3.63%.
Under “relative binding score”, `S140F` is recorded as -3.23%.
